{"data": "Experimental data gathered from unrelated publications", "note": "Parts stem from different laboratories: compare values within a part only. Substitutions count along the parent as printed."}
{"data": "Block 1", "target": "Prothrombin, mature alpha-thrombin (F2, Homo sapiens, UniProt P00734)", "technique": "aptamer microarray, sandwich", "molecule type": "DNA with 2'F-ANA", "medium": "in vitro", "tested at": "200 nM", "notes": "whole 15-mer aptamer, many near background", "together with": "Cy3 exosite-II aptamer, 400 nM", "direction": "higher = stronger binding", "sequence": "GGTTGGTGTGGTTGG"}
{"Modification": "2'F-ANA at 4 5 6 8 12 15", "mean fluorescence intensity": "143 a.u."}
{"Modification": "2'F-ANA at 2 4 5", "mean fluorescence intensity": "84.3 a.u."}
{"Modification": "2'F-ANA at 2 5 8 9 10 13 14 15", "mean fluorescence intensity": "46.1 a.u."}
{"Modification": "2'F-ANA at 3 5 6 7 8 10 11 14", "mean fluorescence intensity": "51.2 a.u."}
{"Modification": "2'F-ANA at 2 5 8 11 15", "mean fluorescence intensity": "97.3 a.u."}
{"Modification": "2'F-ANA at 1 5 6 7 10 14", "mean fluorescence intensity": "49.8 a.u."}
{"Modification": "2'F-ANA at 1 3 4 5 6 7 8 10 11 12 13 14 15", "mean fluorescence intensity": "60 a.u."}
{"data": "Block 2", "target": "CCNB2, cyclin fold, Cln2 fusion (human)", "technique": "yeast growth competition, sequencing", "medium": "yeast", "notes": "weak parent motif", "baseline": "not given", "direction": "higher = stronger binding", "starting sequence": "E2F1 docking peptide (human); PPVKRRLDLETDH; partner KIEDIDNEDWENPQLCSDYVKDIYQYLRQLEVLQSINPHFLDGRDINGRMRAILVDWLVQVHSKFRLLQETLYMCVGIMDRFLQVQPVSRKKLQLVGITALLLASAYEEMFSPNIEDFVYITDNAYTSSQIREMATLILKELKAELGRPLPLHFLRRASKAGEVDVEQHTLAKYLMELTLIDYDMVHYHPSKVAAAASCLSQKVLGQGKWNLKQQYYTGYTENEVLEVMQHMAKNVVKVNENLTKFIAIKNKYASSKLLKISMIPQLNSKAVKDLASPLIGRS"}
{"Change": "PPVKMRLDLETDH [R5M]", "normalised enrichment score": -0.29}
{"Change": "PPVKRRLHLETDH [D8H]", "normalised enrichment score": -0.348}
{"Change": "PPVNRRLDLETDH [K4N]", "normalised enrichment score": 0.335}
{"Change": "PPVKRRLDLECDH [T11C]", "normalised enrichment score": 0.338}
{"Change": "PPVKRRLDLETPH [D12P]", "normalised enrichment score": 0.976}
{"data": "Block 3", "target": "Histone acetyltransferase KAT6A, winged helix 2, GST fusion (KAT6A, Homo sapiens, UniProt Q92794, residues 85-181)", "technique": "protein binding microarray", "molecule type": "double-stranded DNA, one strand shown", "medium": "in vitro", "tested at": "not given", "notes": "8-mer, flanks averaged, mean of 2 arrays, mostly near background", "baseline": "not given", "direction": "higher = stronger binding", "Residues (chain)": "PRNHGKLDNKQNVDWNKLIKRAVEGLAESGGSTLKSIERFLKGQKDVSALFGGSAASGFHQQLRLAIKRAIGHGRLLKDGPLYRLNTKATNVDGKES"}
{"Sequence": "AAGCGAAT", "E-score": 0.112}
{"Sequence": "CGGATAAG", "E-score": -0.0133}
{"Sequence": "AGACACAC", "E-score": -0.0721}
{"Sequence": "ATGCCTGC", "E-score": -0.0599}
{"Sequence": "CCTAATAG", "E-score": -0.0874}
{"Sequence": "ACCGGAGG", "E-score": 0.0135}
{"Sequence": "CAGCCATA", "E-score": 0.0533}
{"data": "Other studies, line by line"}
{"Molecule": "PhoQ, residues 284 288 289 292 302 303 SSLVEF", "target": "PhoP, residues 12 14 15 18 19 DLLYY (Escherichia coli, UniProt P23836)", "assay": "Sort-seq, item: YFP reporter", "system": "E. coli", "conditions": "PhoQ-PhoP variant library, together with: 10 µM Mg2+", "how to read": "baseline: high Mg2+ state, higher = stronger signaling", "quantity": "fold induction", "value": 1.35}
{"note": "A few entries again (block 3):"}
{"Sequence": "AAGCGAAT", "E-score": 0.112}
{"Sequence": "CGGATAAG", "E-score": -0.0133}
{"Sequence": "AGACACAC", "E-score": -0.0721}
